# Measured values collected from several papers.
# Each numbered part is a random draw from the data of one study; scales do not carry over between parts. Positions count from the first letter of the parent shown.
# UniProt P08588, sequence (whole entry, looked up): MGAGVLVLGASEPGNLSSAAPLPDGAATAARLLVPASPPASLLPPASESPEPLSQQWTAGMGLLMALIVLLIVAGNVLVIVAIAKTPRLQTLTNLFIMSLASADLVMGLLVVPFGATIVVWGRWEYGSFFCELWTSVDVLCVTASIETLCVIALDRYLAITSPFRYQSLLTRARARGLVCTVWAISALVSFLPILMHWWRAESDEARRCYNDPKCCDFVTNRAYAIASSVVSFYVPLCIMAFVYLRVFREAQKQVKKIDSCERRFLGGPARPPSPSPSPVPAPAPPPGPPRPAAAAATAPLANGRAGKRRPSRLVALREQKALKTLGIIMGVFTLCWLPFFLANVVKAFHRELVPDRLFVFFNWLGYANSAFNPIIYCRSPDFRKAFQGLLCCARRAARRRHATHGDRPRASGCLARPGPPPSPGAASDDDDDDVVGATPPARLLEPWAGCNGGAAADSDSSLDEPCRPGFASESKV
# UniProt P61075, sequence (whole entry, looked up): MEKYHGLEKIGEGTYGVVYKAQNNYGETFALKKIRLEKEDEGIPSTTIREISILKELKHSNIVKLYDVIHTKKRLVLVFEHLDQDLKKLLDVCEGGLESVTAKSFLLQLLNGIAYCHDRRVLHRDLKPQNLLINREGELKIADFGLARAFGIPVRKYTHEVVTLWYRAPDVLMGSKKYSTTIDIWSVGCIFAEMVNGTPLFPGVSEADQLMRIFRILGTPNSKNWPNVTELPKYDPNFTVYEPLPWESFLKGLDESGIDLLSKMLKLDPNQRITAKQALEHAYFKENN

# Study 1 — read-out: binding; method: phage display NGS; molecule type: peptide; concentration: concentration not given; setting: normalized abundance; reference: input library
# Target: UDP-N-acetylglucosamine--peptide N-acetylglucosaminyltransferase 110 kDa subunit (OGT, Homo sapiens, UniProt O15294)
# UniProt O15294, sequence (whole entry, looked up): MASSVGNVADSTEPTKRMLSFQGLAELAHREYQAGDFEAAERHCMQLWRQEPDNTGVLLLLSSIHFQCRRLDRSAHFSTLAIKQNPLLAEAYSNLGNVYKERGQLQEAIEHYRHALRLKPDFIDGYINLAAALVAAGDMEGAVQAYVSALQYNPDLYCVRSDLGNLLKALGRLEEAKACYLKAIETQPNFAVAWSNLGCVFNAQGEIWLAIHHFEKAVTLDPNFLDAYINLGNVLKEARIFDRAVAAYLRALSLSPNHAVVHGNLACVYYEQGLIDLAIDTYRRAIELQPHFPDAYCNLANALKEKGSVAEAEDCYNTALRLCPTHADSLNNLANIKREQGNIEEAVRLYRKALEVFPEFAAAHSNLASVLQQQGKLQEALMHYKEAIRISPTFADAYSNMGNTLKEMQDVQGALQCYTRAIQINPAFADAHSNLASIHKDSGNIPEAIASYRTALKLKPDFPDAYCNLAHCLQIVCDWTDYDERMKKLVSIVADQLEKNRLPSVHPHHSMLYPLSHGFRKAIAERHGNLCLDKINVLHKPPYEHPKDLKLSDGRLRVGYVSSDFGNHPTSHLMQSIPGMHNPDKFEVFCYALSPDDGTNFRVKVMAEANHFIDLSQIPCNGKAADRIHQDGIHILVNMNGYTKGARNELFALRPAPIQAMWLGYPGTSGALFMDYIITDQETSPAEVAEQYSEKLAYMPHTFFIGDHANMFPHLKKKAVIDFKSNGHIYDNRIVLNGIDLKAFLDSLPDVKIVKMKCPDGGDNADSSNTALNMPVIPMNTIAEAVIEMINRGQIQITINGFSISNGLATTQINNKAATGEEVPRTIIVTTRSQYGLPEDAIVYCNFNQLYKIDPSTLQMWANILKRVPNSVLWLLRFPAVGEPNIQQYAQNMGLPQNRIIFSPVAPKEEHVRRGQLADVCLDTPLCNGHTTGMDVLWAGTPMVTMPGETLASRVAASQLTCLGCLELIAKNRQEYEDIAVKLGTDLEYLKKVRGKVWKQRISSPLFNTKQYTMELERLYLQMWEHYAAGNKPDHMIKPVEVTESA
Sequence,enrichment fold change
HDGLKWGKHFTHHRG,4.13
VDYRPAYPIDWAPWK,5.85
RHDPMSFQPVYQIKY,68.6
YQAVPRFHVEHTHHD,9.12
HYRTDHFKPDHHIHT,12.4
DHSLPTTHIHTHHDI,5.92
QQGFAPQYQILIEWE,9.66
SYIPGRVFPPQYQIT,3.29

# Study 2 — target: CCND1, cyclin fold, Cln2 fusion (human); method: yeast growth competition, sequencing; sample: yeast; setting: strong parent motif; reference: not given; reading: higher = stronger binding
# Starting sequence: viral docking peptide; YKVKRRLVFGADD; partner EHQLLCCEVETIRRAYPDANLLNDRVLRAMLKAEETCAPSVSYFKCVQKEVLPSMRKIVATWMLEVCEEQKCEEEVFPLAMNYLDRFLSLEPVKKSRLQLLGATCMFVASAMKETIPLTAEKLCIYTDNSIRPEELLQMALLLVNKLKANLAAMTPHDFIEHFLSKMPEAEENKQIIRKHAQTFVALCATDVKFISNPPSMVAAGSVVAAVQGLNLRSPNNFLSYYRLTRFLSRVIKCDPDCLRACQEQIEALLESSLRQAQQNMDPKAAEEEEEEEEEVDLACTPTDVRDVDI
Variant,normalised enrichment score
D12Y,0.756
G10V,1.34
A11N,2.74
L7E,0.0644
R5E,0.358
K2F,0.635
A11E,4.01
L7W,0.379

# Further values, each from its own experiment
Structure (SMILES),target,read-out,mode,method,concentration,measurement,result
O=C(NS(=O)(=O)c1ccc(NCC2CCOCC2)c([N+](=O)[O-])c1)c1ccc(N2CCN(Cc3ccc(C(F)(F)F)cc3-c3ccc(Cl)cc3)CC2)cc1Oc1cnc2[nH]ccc2c1,"CRK2 (Plasmodium falciparum, UniProt P61075)",cell-free assay,,competition with immobilised ligand,1 µM,remaining binding,100%
CC(C)[C@H]1C(=O)N2CCC[C@H]2[C@]2(O)O[C@](NC(=O)[C@@H]3C=C4c5cccc6[nH]cc(c56)C[C@H]4N(C)C3)(C(C)C)C(=O)N12,"ADRB1 (Homo sapiens, UniProt P08588)",,agonist,,,EC50,≥ 100 µM

# A few entries again (further values, each from its own experiment):
Structure (SMILES),target,read-out,mode,method,concentration,measurement,result
O=C(NS(=O)(=O)c1ccc(NCC2CCOCC2)c([N+](=O)[O-])c1)c1ccc(N2CCN(Cc3ccc(C(F)(F)F)cc3-c3ccc(Cl)cc3)CC2)cc1Oc1cnc2[nH]ccc2c1,"CRK2 (Plasmodium falciparum, UniProt P61075)",cell-free assay,,competition with immobilised ligand,1 µM,remaining binding,100%
CC(C)[C@H]1C(=O)N2CCC[C@H]2[C@]2(O)O[C@](NC(=O)[C@@H]3C=C4c5cccc6[nH]cc(c56)C[C@H]4N(C)C3)(C(C)C)C(=O)N12,"ADRB1 (Homo sapiens, UniProt P08588)",,agonist,,,EC50,≥ 100 µM
